Published values from different studies.
Parts stem from different laboratories: compare values within a part only. Substitutions count along the parent as printed.

Sample 1 — method: RNA Bind-n-Seq; form: RNA; medium: in vitro; tested at: 20 nM; setting: 6-mer, flanks averaged, single round; added: 150 mM LiCl; baseline: input library; reading: higher = stronger binding; measurement: 6-mer enrichment (R)
Target: TAR DNA-binding protein 43, full length, His tag (TARDBP, Homo sapiens, UniProt Q13148, residues 1-414)
Strand = UGACCG; result = 0.897
Strand = GCCAGG; result = 1.02
Strand = CCGCCU; result = 0.959
Strand = CUCCAU; result = 0.96
Strand = CACCCU; result = 1.05
Strand = CCGAUG; result = 0.899
Strand = CUCGCU; result = 0.835
Strand = CCGAUU; result = 0.865
Strand = CACGCA; result = 0.881
Strand = UUAUCC; result = 0.965
Strand = AAUCAU; result = 0.865
Strand = AGAUGC; result = 0.906
Strand = UUCGAA; result = 0.857

Sample 2 — target: CCNA2, cyclin fold, Cln2 fusion (human); method: yeast growth competition, sequencing; medium: yeast; setting: strong parent motif; baseline: not given; reading: higher = stronger binding; measurement: normalised enrichment score
Parent: PKMYT1 docking peptide (human); SFEPRNLLSLFED; partner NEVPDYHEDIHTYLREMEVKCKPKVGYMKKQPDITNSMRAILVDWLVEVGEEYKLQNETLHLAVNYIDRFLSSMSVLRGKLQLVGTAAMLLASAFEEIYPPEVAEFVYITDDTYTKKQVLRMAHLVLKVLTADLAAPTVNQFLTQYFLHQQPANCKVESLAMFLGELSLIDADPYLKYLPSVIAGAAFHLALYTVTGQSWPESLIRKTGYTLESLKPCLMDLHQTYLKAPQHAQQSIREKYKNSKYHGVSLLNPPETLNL
Change = R5A L7A; result = -0.88
Change = D13F; result = 2.55
Change = F11W; result = 0.537
Change = R5I; result = 0.98
Change = L8Y; result = 1.2
Change = F2E; result = -1.05
Change = N6W; result = -0.562
Change = F2T; result = 1.15
Change = S9I; result = 1.61
Change = F2V; result = 1.35
Change = N6F; result = 0.0312
Change = F2R; result = 0.504
Change = F2M; result = 1.61

Sample 3 — method: protein binding microarray; form: double-stranded DNA, one strand shown; medium: in vitro; tested at: not given; baseline: not given; reading: higher = stronger binding; measurement: E-score
Target: Histone acetyltransferase KAT6A, winged helix 1, GST fusion (KAT6A, Homo sapiens, UniProt Q92794, residues 1-85)
Setting: 8-mer, flanks averaged, mean of 2 arrays, mostly near background
Residues (chain): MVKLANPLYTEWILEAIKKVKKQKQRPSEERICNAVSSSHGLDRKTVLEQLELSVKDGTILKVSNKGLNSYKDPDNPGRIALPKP
Strand = AAGTTTCA; result = -0.0188
Strand = ACGTTAGC; result = 0.0843
Strand = AGGACAAA; result = -0.238
Strand = AGAGGAGC; result = -0.0683
Strand = ATCCCTAG; result = -0.102
Strand = CGGCGAGC; result = 0.344
Strand = TATTGCGA; result = 0.112
Strand = ACACTGTG; result = -0.0813
Strand = TGCCCGCA; result = 0.177
Strand = CCCATAGC; result = -0.0378
Strand = GTGGGTGA; result = -0.000505
Strand = TGGGTACA; result = -0.00668
Strand = CTTCGAAA; result = -0.0684
Strand = GAGCGCAC; result = 0.305

Sample 4 — method: Sort-seq; measured: YFP reporter; medium: E. coli; setting: PhoQ-PhoP variant library; added: 10 µM Mg2+; baseline: high Mg2+ state; reading: higher = stronger signaling; measurement: fold induction
Molecule: PhoQ, residues 284 288 289 292 302 303 TASMAF
target = PhoP, residues 12 14 15 18 19 TQALL (Escherichia coli, UniProt P23836); result = 6.96
target = PhoP, residues 12 14 15 18 19 QYFSL (Escherichia coli, UniProt P23836); result = 14.4
target = PhoP, residues 12 14 15 18 19 NYFRM (Escherichia coli, UniProt P23836); result = 10.9

Excerpt of the above (sample 4):
target = PhoP, residues 12 14 15 18 19 TQALL (Escherichia coli, UniProt P23836); result = 6.96
target = PhoP, residues 12 14 15 18 19 QYFSL (Escherichia coli, UniProt P23836); result = 14.4
target = PhoP, residues 12 14 15 18 19 NYFRM (Escherichia coli, UniProt P23836); result = 10.9
